Measurements collected from several papers.
Organism: Pseudomonas aeruginosa

| SMILES | test | test system | setting | MIC |
| --- | --- | --- | --- | --- |
| CCn1cc(C(=O)O)c(=O)c2cc(F)c(N3CCNCC3)cc21 | broth microdilution | pyocyanin non-producing | – | 0.06 µg/mL |
| CC1(C)C(NC(=O)C(=NOC2(C(=O)O)CCC2)c2csc(N)n2)C(=O)N1OS(=O)(=O)O (stereo not drawn) | agar dilution | ATCC 27853 | – | 4 µg/mL |
| CC[C@H]1OC(=O)[C@H](C)[C@@H](OC(=O)Cc2cccc([N+](=O)[O-])c2)[C@H](C)[C@@H](O[C@@H]2O[C@H](C)C[C@H](N(C)C)[C@H]2O)[C@](C)(OC)C[C@@H](C)C(=O)[C@H](C)[C@@H](O)[C@]1(C)O | – | PAO397, five efflux pumps deleted | – | 32 µg/mL |
| COc1cc(C(=O)O)ccc1NC(=O)c1ccc(NC(=O)c2ccc(NC(=O)[C@H](Cc3c[nH]nn3)NC(=O)c3ccc(NC(=O)/C(C)=C/c4ccc(O)cc4)cc3)cc2)c(OC)c1O | broth microdilution | ciprofloxacin-sensitive | – | 8 µg/mL |
| COc1cccc(OC)c1C(=O)N[C@@H]1C(=O)N2[C@@H]1SC(C)(C)[C@@H]2C(=O)O | microbial growth, broth dilution | PAO1 | – | > 128 µM |
| N=C(N)NCCC[C@@H]1NC(=O)[C@H](CCCNC(=N)N)NC(=O)[C@H](CCCNC(=N)N)NC(=O)[C@@H](CCCNC(=N)N)NC(=O)[C@H](Cc2ccc3ccccc3c2)NC(=O)[C@H](Cc2ccc3ccccc3c2)NC(=O)[C@H](Cc2ccc3ccccc3c2)NC1=O | – | ATCC 27853 | – | 32 µg/mL |
| COc1c(C)c(O)c(C(=O)C=Cc2ccccc2)c(OC)c1C | microbial growth, broth dilution | ATCC27853 | – | 5000 µg/mL |
| COc1cc(C(=O)O)ccc1NC(=O)c1ccc(NC(=O)c2ccc(NC(=O)[C@H](Cc3c[nH]nn3)NC(=O)c3ccc(NC(=O)/C(C)=C/c4ccc(O)cc4)cc3)cc2)c(OC)c1 | broth microdilution | ciprofloxacin-sensitive | – | 32 µg/mL |
| COc1c(C)c(OS(=O)(=O)c2ccccc2)c(C)c2c1C(=O)CC(c1ccccc1)O2 (stereo not drawn) | microbial growth, broth dilution | ATCC27853 | – | 5000 µg/mL |
| COc1c(NC(=O)c2ccc(NC(=O)c3ccc(NC(=O)[C@H](Cc4c[nH]nn4)NC(=O)c4ccc(NC(=O)/C(C)=C/c5ccc(O)cc5)cc4)cc3)cc2)ccc(C(=O)O)c1O | broth microdilution | ciprofloxacin-resistant | – | 32 µg/mL |
| COc1ccc2ccc(O)c(/C=N/[C@H]3CCCC[C@H]3/N=C/c3ccccc3O)c2c1 | microbial growth, broth dilution | – | – | > 40 µM |
| CCCCCCCCCC[N+](C)(C)CCCCCCOc1cc(OCCCCCC[N+](C)(C)CCCCCCCCCC)cc(OCCCCCC[N+](C)(C)CCCCCCCCCC)c1.[Br-].[Br-].[Br-] | – | PAO1 | – | 4 µM |
| CC1(C)[C@H](NC(=O)/C(=N\OCC(=O)N2CCC(C(=O)O)C2)c2nsc(N)n2)C(=O)N1OS(=O)(=O)O (stereo partly drawn) | agar dilution | ATCC 27853 | – | > 64 µg/mL |
| CN[C@H](CC(C)C)C(=O)N[C@H]1C(=O)N[C@@H](CC(N)=O)C(=O)N[C@H]2C(=O)N[C@H]3C(=O)N[C@H](C(=O)N[C@H](C(=O)O)c4cc(O)cc(O)c4-c4cc3ccc4O)[C@H](O)c3ccc(c(Cl)c3)Oc3cc2cc(c3O[C@@H]2O[C@H](CO)[C@@H](O)[C@H](O)[C@H]2O[C@H]2C[C@](C)(NCc3ccc(OCc4cn(CC(=O)N[C@H](C(=O)N[C@@H](CCN)C(=O)N[C@H]5CCNC(=O)[C@H]([C@@H](C)O)NC(=O)[C@H](CCN)NC(=O)[C@H](CCN)NC(=O)[C@H](CC(C)C)NC(=O)[C@@H](CC(C)C)NC(=O)[C@H](CCN)NC5=O)[C@@H](C)O)nn4)c(OC)c3)[C@H](O)[C@H](C)O2)Oc2ccc(cc2Cl)[C@H]1O | broth microdilution | ATCC 27853, cation-adjusted Mueller-Hinton broth | 18 to 20 h, 37 °C, 0.002% polysorbate 80 | 16 µg/mL |
| CC[C@H](C)[C@H](NC(=O)[C@H](CCC(N)=O)NC(=O)[C@H](Cc1ccccc1)NC(=O)[C@H](CC(N)=O)NC(=O)[C@H](CCCCN)NC(=O)[C@H](CC(C)C)NC(=O)[C@H](CCCNC(=N)N)NC(=O)[C@H](CCCCN)NC(=O)[C@H](CCCCN)NC(=O)[C@@H](NC(=O)[C@H](CO)NC(=O)[C@H](CCCCN)NC(=O)CNC(=O)[C@H](CC(C)C)NC(=O)[C@H](CCCCN)NC(=O)[C@H](CCCCN)NC(=O)[C@H](CC(C)C)NC(=O)[C@H](CCCCN)NC(=O)[C@H](CCCCN)NC(=O)[C@H](CCCNC(=N)N)NC(=O)[C@H](CC(C)C)NC(=O)CNC(=O)[C@@H](N)CCCNC(=N)N)[C@@H](C)CC)C(=O)NCC(=O)N[C@@H](Cc1ccccc1)C(=O)N[C@@H](CO)C(=O)N[C@H](C(=O)N1CCC[C@H]1C(=O)N[C@@H](Cc1ccccc1)C(=O)N[C@@H](C)C(=O)NCC(=O)O)C(C)C | broth microdilution | PA14 | – | 8.93 µM |
| CC[C@H]1OC(=O)[C@H](C)[C@@H](OC(=O)Cc2ccccc2Cl)[C@H](C)[C@@H](O[C@@H]2O[C@H](C)C[C@H](N(C)C)[C@H]2O)[C@](C)(OC)C[C@@H](C)C(=O)[C@H](C)[C@@H](O)[C@]1(C)O | microbial growth | ATCC27853 | – | > 32 µg/mL |
| O=C(O)c1cn(C2CC2)c2cc(N3CCNCC3)c(F)cc2c1=O | microbial growth, broth dilution | – | – | < 0.008 µg/mL |
| O=C(Oc1cccccc1=O)c1cccc(Cl)c1 | broth microdilution | ATCC 27853, CAMHB | 16 to 24 h, ≥80% growth inhibition | > 71.4 µM |
| CC1(C)[C@H](NC(=O)/C(=N\OCC(=O)N2CCC[C@@H]2C(=O)O)c2nsc(N)n2)C(=O)N1OS(=O)(=O)O | agar dilution | PAO1 | – | > 64 µg/mL |
| CN[C@H](CC(C)C)C(=O)N[C@H]1C(=O)N[C@@H](CC(N)=O)C(=O)N[C@H]2C(=O)N[C@H]3C(=O)N[C@H](C(=O)N[C@H](C(=O)O)c4cc(O)cc(O)c4-c4cc3ccc4O)[C@H](O)c3ccc(c(Cl)c3)Oc3cc2cc(c3O[C@@H]2O[C@H](CO)[C@@H](O)[C@H](O)[C@H]2O[C@H]2C[C@](C)(NCc3ccc(OCc4cn(CCCCC(=O)N[C@H](C(=O)N[C@@H](CCN)C(=O)N[C@H]5CCNC(=O)[C@H]([C@@H](C)O)NC(=O)[C@H](CCN)NC(=O)[C@H](CCN)NC(=O)[C@H](CC(C)C)NC(=O)[C@@H](CC(C)C)NC(=O)[C@H](CCN)NC5=O)[C@@H](C)O)nn4)c(OC)c3)[C@H](O)[C@H](C)O2)Oc2ccc(cc2Cl)[C@H]1O | broth microdilution | ATCC 27853, cation-adjusted Mueller-Hinton broth | 18 to 20 h, 37 °C, 0.002% polysorbate 80 | 16 µg/mL |
| CC1(C)[C@H](NC(=O)/C(=N\OCC(=O)N2CCC(C(=O)O)CC2)c2csc(N)n2)C(=O)N1OS(=O)(=O)O | agar dilution | PAO1 | – | > 64 µg/mL |
| CC[C@H]1OC(=O)[C@H](C)[C@@H](OC(=O)Cc2ccc(N)cc2)[C@H](C)[C@@H](O[C@@H]2O[C@H](C)C[C@H](N(C)C)[C@H]2O)[C@](C)(OC)C[C@@H](C)C(=O)[C@H](C)[C@@H](O)[C@]1(C)O | – | PAO397, five efflux pumps deleted | – | 32 µg/mL |
| CCCCCCCCCC[N+](C)(C)CCCCCCCCCCOc1cc(OCCCCCCCCCC[N+](C)(C)CCCCCCCCCC)cc(OCCCCCCCCCC[N+](C)(C)CCCCCCCCCC)c1.[Br-].[Br-].[Br-] | – | PAO1 | – | 125 µM |
| COc1ccc2ccc(O)c(/C=N/[C@H]3CCCC[C@H]3/N=C/c3cc(C(C)(C)C)ccc3O)c2c1 | microbial growth, broth dilution | – | – | > 40 µM |
